Measured values from different studies.
± marks the error that the study gave.

| Molecule | tested on | assay | test system | setting | scale | quantity | result |
| --- | --- | --- | --- | --- | --- | --- | --- |
| ORF34 E41A/T42A (Kaposi's sarcoma-associated herpesvirus) | ORF24 1-400 | pull-down |  |  | relative to: wild-type ORF34, higher = more binding | relative binding | 0.877 |
| O=C1NC2(CC2)COc2ncc(F)cc2[C@H]2COCCN2c2ccn3ncc1c3n2 |  |  | Sprague-Dawley rat, male | oral, 5 mg/kg/day, end of recovery, 4-week repeated-dose toxicity |  | body weight | 526 ± 47.7 g |
| CC(C)CC(C(=O)N1CC2(CC1C#N)C(=O)Nc1ccccc12)N(C)C(=O)c1cc2c(F)cc(F)c(F)c2[nH]1 (stereo not drawn) | Human coronavirus 229E | cytopathic effect | MRC5 | 49.75 nM |  | inhibition | 94.9% |
| COc1ccccc1-c1n[nH]c2nc(NC3CCN(C(=O)Cc4ccc(F)cc4F)CC3)ncc12 |  | bead binding, competition bead pull-down, refers to: LINJ.32.2780 | Leishmania donovani axenic amastigote extract | 10 µM | relative to: vehicle | relative abundance | 0.92 |
| CC(C)(C)C(=O)OCOP(=O)(OCOC(=O)C(C)(C)C)C1CCCN(O)C1=O (stereo not drawn) | NCI-H23 |  |  |  |  | CC50 | > 100 µM |
| ORF34 V50A (Kaposi's sarcoma-associated herpesvirus) | ORF24 1-400 | pull-down | 293T |  | relative to: wild-type ORF34, higher = more prey pulled down | relative binding | 0.86 |

Excerpt of the above:
| Molecule | tested on | assay | test system | setting | scale | quantity | result |
| --- | --- | --- | --- | --- | --- | --- | --- |
| CC(C)CC(C(=O)N1CC2(CC1C#N)C(=O)Nc1ccccc12)N(C)C(=O)c1cc2c(F)cc(F)c(F)c2[nH]1 (stereo not drawn) | Human coronavirus 229E | cytopathic effect | MRC5 | 49.75 nM |  | inhibition | 94.9% |
